# Assay results pooled from the literature.
# Each line is one published result; not all experiments were run side by side. ± gives the spread as reported.
# PLEKHA5 PH domain: Pleckstrin homology domain-containing family A member 5, PH domain (PLEKHA5, Homo sapiens, UniProt Q9HAU0)
# Chain of UniProt Q9HAU0 (whole entry, looked up): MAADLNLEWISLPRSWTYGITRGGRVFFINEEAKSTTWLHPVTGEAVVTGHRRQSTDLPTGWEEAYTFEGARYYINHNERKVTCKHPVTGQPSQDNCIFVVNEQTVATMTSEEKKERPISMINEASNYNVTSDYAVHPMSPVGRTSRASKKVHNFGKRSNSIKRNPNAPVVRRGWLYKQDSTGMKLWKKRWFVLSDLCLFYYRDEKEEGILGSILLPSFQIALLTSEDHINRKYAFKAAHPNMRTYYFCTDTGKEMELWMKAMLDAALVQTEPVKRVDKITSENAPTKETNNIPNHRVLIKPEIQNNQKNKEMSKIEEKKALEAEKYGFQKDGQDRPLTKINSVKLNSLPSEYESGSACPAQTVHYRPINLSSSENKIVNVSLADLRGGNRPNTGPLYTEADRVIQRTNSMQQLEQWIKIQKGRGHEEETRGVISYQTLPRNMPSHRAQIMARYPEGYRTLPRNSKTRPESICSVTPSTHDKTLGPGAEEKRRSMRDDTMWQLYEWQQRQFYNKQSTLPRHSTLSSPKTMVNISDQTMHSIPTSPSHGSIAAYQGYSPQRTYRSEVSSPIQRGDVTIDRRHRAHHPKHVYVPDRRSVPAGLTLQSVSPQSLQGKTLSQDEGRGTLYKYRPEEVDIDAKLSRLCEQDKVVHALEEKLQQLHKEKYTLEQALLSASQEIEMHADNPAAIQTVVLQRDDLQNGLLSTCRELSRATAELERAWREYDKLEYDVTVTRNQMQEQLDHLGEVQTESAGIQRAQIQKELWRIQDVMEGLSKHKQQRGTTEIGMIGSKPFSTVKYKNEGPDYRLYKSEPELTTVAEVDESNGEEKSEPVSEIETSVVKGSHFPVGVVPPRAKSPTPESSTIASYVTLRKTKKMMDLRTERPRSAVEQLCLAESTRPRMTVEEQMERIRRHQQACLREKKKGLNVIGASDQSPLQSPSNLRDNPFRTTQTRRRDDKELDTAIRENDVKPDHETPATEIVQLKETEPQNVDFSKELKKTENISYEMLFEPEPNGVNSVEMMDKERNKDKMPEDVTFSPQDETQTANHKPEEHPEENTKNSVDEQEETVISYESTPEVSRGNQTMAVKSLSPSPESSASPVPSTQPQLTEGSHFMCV
# Alpha-carbonic anhydrase: Alpha-carbonic anhydrase (Enterococcus faecium, UniProt Q3XYE8)
# Chain of UniProt P05183 (whole entry, looked up): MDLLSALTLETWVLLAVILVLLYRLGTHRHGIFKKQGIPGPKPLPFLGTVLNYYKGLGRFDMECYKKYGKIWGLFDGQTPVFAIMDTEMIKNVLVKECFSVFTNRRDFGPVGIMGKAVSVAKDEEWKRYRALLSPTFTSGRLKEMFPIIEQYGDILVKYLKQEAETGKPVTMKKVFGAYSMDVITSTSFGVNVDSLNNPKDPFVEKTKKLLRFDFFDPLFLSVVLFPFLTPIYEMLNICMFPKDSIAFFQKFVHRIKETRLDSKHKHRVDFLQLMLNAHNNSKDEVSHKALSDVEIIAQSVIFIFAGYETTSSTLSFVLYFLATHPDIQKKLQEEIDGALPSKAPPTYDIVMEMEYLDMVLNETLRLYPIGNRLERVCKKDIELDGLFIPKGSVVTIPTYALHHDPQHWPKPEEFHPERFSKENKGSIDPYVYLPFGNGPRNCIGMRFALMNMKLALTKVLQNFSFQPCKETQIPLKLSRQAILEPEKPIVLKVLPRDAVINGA
# Chain of UniProt Q9UHM6 (whole entry, looked up): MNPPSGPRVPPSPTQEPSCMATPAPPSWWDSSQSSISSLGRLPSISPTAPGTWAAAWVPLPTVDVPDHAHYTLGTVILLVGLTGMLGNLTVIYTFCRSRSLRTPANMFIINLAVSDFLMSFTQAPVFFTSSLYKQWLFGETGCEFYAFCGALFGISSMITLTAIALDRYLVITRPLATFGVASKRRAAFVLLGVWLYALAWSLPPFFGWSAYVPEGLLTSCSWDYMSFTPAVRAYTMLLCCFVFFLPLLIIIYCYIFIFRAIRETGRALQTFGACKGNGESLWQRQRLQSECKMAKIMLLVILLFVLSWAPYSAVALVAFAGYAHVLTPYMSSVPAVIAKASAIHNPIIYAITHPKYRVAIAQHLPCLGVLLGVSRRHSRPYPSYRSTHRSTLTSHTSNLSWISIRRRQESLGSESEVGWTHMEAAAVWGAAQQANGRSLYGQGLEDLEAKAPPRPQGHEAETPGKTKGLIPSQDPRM
# Chain of UniProt P52790 (whole entry, unmodified, looked up): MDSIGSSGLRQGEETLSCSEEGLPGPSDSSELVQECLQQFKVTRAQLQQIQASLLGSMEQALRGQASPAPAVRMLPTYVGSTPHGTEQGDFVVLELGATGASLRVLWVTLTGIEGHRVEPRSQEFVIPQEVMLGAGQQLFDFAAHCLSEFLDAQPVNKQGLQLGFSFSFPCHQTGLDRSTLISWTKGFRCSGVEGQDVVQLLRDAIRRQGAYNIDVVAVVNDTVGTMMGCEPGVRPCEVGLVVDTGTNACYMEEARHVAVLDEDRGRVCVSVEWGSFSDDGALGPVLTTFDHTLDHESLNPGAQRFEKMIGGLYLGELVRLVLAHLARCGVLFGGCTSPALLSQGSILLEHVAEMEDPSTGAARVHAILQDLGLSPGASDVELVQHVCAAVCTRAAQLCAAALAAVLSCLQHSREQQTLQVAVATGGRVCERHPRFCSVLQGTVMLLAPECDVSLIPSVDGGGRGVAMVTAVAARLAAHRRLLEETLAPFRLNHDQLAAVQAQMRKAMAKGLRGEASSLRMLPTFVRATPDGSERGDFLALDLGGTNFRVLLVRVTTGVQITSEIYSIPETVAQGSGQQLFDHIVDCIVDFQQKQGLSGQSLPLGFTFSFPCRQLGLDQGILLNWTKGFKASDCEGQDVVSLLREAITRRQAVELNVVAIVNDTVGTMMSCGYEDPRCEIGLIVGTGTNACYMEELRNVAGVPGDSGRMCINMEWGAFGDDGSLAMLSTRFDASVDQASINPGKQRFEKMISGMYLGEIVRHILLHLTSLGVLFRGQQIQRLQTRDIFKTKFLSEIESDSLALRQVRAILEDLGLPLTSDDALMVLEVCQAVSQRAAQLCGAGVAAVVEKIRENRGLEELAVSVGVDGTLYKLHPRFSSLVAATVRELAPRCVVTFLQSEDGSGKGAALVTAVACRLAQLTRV
# Chain of UniProt Q9UNQ0 (whole entry, looked up): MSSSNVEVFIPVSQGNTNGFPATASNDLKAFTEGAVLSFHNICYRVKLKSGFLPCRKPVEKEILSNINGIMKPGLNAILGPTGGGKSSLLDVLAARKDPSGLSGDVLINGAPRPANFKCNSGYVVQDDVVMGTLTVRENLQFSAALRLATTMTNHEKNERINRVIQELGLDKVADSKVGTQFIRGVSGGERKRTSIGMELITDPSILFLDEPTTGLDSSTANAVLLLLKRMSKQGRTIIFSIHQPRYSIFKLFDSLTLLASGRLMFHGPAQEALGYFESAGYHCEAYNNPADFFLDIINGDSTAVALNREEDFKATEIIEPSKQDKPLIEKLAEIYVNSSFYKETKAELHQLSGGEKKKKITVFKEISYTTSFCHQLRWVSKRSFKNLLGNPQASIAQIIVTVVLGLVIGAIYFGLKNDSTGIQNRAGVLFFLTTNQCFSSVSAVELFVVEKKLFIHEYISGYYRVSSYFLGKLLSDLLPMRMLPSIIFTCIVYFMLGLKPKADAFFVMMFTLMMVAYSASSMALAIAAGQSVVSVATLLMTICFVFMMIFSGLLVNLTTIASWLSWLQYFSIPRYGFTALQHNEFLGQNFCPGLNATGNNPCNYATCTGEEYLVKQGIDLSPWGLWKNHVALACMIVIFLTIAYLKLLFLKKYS
Compound,target,test,test system,setting,scale,Ki [µM]
CCOc1cccc(C(=O)CC(SCc2ccc(Cl)cc2)C(=O)O)c1 (stereo not shown),PLEKHA5 PH domain,"PLEKHA5 PI(4,5)P2 binding, fluorescence polarization",,"added: BODIPY-PI(4,5)P2 tracer",,16.4 ± 1.8
NS(=O)(=O)c1nnc(NC(=O)CC2CCC(F)(F)CC2)s1,Alpha-carbonic anhydrase,"CO2 hydration, inhibitor, stopped-flow kinetics",,,,0.0086
OC[C@H]1OC(O)[C@H](O)[C@@H](O)[C@@H]1O (stereo partly shown),"Hexokinase-3 (HK3, Homo sapiens, UniProt P52790, R480W)",substrate inhibition,,"mutant R480W, complete substrate inhibition model, added: ATP 20 mM",,14000 ± 1000
COc1cc(N2CCC(N3CCN(C)CC3)CC2)ccc1Nc1ncc(Cl)c(Nc2ccccc2P(C)(C)=O)n1,"ABCG2 (Homo sapiens, UniProt Q9UNQ0)","transport, inhibitor",C2BBe1,added: cladribine 10 µM substrate,,10.1
Cc1ccc(S(=O)(=O)n2cc(/C=N/NC(=S)Nc3cccc([N+](=O)[O-])c3)c3ccccc32)cc1,mushroom tyrosinase,inhibitor,,added: L-DOPA,,10.25 ± 0.08
CCOc1ccc(C(=O)CC(SCc2ccc(Cl)cc2)C(=O)O)cc1 (stereo not shown),PLEKHA5 PH domain,"PLEKHA5 PI(4,5)P2 binding, fluorescence polarization",,"added: BODIPY-PI(4,5)P2 tracer",,16.5 ± 1.2
O=C(O)c1ccc(Cn2ccnc2)o1,"WDR5 (Homo sapiens, UniProt P61964)",fluorescence polarization competition,,added: FITC-MLL1 peptide,,150 ± 8.4
O=c1cc(-c2ccc(O)c(O)c2)oc2cc(O[C@@H]3O[C@H](CO)[C@@H](O)[C@H](O)[C@H]3O)cc(O)c12,"LDHA (Homo sapiens, UniProt P00338)","enzyme activity, inhibitor",,"added: 150 µM NADH, varied pyruvate",competition with pyruvate,137
CC1(C(=O)Nc2nnc(S(N)(=O)=O)s2)CCC1,Alpha-carbonic anhydrase,"CO2 hydration, inhibitor, stopped-flow kinetics",,,,0.0262
COc1ccccc1C(=O)CC(SCc1ccc(Cl)cc1)C(=O)O (stereo not shown),PLEKHA5 PH domain,"PLEKHA5 PI(4,5)P2 binding, fluorescence polarization",,"added: BODIPY-PI(4,5)P2 tracer",,78.9 ± 5
O=c1c2ccccc2nc2n1CCc1c-2[nH]c2ccccc12,"Cytochrome P450 3A2 (Cyp3a2, Rattus norvegicus, UniProt P05183)","enzyme activity, inhibitor","Sprague-Dawley rat, male, liver microsomes","30 (unit not given), pH 7.4",,17.3
NS(=O)(=O)c1nnc(NC(=O)C2CCC3(CCCCC3)C2)s1 (stereo not shown),Alpha-carbonic anhydrase,"CO2 hydration, inhibitor, stopped-flow kinetics",,,,0.0669
COc1ccc(C(=O)CC(SCc2ccc(Cl)cc2)C(=O)O)cc1 (stereo not shown),PLEKHA5 PH domain,"PLEKHA5 PI(4,5)P2 binding, fluorescence polarization",,"added: BODIPY-PI(4,5)P2 tracer",,54 ± 6.3
NCCCC(=O)Nc1nnc(S(N)(=O)=O)s1,Alpha-carbonic anhydrase,"CO2 hydration, inhibitor, stopped-flow kinetics",,,,0.0492
COc1cc(Cl)c(S(=O)(=O)N2CCCC(C)C2)cc1Cl (stereo not shown),"Melanopsin (OPN4, Homo sapiens, UniProt Q9UHM6)",radioligand binding,CHO-OPN4 cell membranes,,,9.6e-05
CCOc1ccc(C(=O)CC(SCc2ccc(F)cc2)C(=O)O)cc1 (stereo not shown),PLEKHA5 PH domain,"PLEKHA5 PI(4,5)P2 binding, fluorescence polarization",,"added: BODIPY-PI(4,5)P2 tracer",,52.9 ± 8.4
CC1(C)CCCN(CC(=O)Nc2nnc(S(N)(=O)=O)s2)C1,Alpha-carbonic anhydrase,"CO2 hydration, inhibitor, stopped-flow kinetics",,,,0.0116
CCOc1ccc(-c2cc(C(=O)O)c(-c3ccc(Cl)cc3)o2)cc1,PLEKHA5 PH domain,"PLEKHA5 PI(4,5)P2 binding, fluorescence polarization",,"added: BODIPY-PI(4,5)P2 tracer",,1.93 ± 0.94
NS(=O)(=O)c1nnc(NC(=O)CC2CC3CCC2C3)s1 (stereo not shown),Alpha-carbonic anhydrase,"CO2 hydration, inhibitor, stopped-flow kinetics",,,,0.0289
